Assay results from different studies.
“And” joins repeats or separate records; there may be more than shown.
Target: Calcium/calmodulin-dependent protein kinase type II subunit beta (CAMK2B, Homo sapiens, UniProt Q13554)

The remaining binding of `CNC1C[S+]2CC[S+]3CC[S+](C1)[Ru-4]321([N]=C=S)[n]2c3ccc(OC)cc3c3c4c(c5cc(F)c[n+]1c5c32)C(=O)NC4=O` (stereo not shown) is reported as 71% (KinomeScan; 0.1 µM; baseline: untreated).
`Nc1ncc(-c2cc(-c3cnn(CC(F)(F)F)c3)ncc2F)nc1C(=O)NC1CNCC(F)C1` (stereo not shown) has a remaining activity of 92.6% (enzyme activity; 1 µM; baseline: DMSO control).
`C=CC(=O)Nc1cccc(-c2cnc3[nH]cc(C(=O)NC(C)(C)C)c3n2)c1` has an inhibition of 3% and 0% (kinase activity; 0.1 µM).
`COCC12C(=O)NC3C4(C(OC)CC1O)C1CC5(O)C(OC)C(O)C(OC(C)=O)(C1C5OC(=O)c1ccccc1)C3(O)C(OC)C24` (stereo not shown) has a remaining activity of 83% and 102% (kinase activity, inhibitor, ProQinase kinase profiling; 25 µM; baseline: control).
`C=CC(=O)N1CCCC(n2c(=O)c3ncccc3n(Cc3ccc(Oc4ccccc4)cc3)c2=O)C1` (stereo not shown) has a remaining binding of 100% (cell-free assay, competition with immobilised ligand; 1 µM).
The inhibition of `CN1CC[C@@H](COc2cnc(C#N)cc2-c2ccn3nc(NC(=O)C4CC4)cc3c2)C1` is reported as -1% (enzyme activity, inhibitor; 1 µM).
`CNC(=O)C[C@H](Cc1ccc(C#N)cc1)NC(=O)c1cc(-c2ccc(CN[C@H](C)c3ccc(C)cc3)o2)ccc1Cl` — result for “activity vs control”: 75% (enzyme activity, inhibitor; 1 µM).
`NC(=O)C[C@H]1CCc2sc3ncnc(O[C@H]4CC[C@H](N5CCOCC5)CC4)c3c21` has an inhibition of 9% (enzyme activity, inhibitor; 10 µM).
`CN1CCN(Cc2ccc(-c3ccc(CO[C@H]4CCC[C@@H]4NC(=O)c4cc(-c5cnn(C)c5)cnc4N)cc3)cc2)CC1` gave an inhibition of 3% (enzyme activity, inhibitor; 0.1 µM).
`C=CC(=O)N1CCc2ccc(-n3c(=O)ccc4cnc5ccc(-c6cnn(C)c6)cc5c43)cc21` gave a remaining binding of 91% (KINOMEscan; 1 µM; baseline: DMSO control).
For `Cc1cccc(O[C@H]2CCC[C@@H](C(C)CNCc3ccncc3)C2)c1` (relative stereo), the inhibition was 1% (enzyme activity, inhibitor; 1 µM).
`COc1c(OCCCN2CCOCC2)ccc2c1N=C(NC(=O)c1cnc(N)nc1)N1CCN=C21` has a remaining activity of 104% (kinase activity, inhibitor; 1 µM; baseline: untreated control).
For `COc1cc(Nc2nc(C)cc(-c3cnn4nc(OC)ccc34)n2)cc(C(F)(F)F)c1`, the remaining activity was 93% (inhibitor; 1 µM; baseline: control).
For `CC(C)=CC1OC(C)(C)C2C=C3C(=O)C(Cl)=CC(O)C3C3C(O)C4OC4C(=O)C132` (stereo not shown), the remaining binding was 61% (cell-free assay, competition with immobilised ligand; 10 µM).
For `O=C(Cc1ccc(OCc2ccccc2)cc1)NC1(C(=O)O)CCN(C(=O)c2ccc(-c3cccc(Cl)c3)cc2)CC1`, “activity vs control” read 96% (enzyme activity, inhibitor; 10 µM).
The remaining binding of `Cc1cnc2nc1Nc1cccc(c1)COC/C=C/COCc1cc(ccc1OCCN1CCOCC1)N2` is reported as 96% (binding; 0.1 µM).

Repeated from above:
For `Cc1cccc(O[C@H]2CCC[C@@H](C(C)CNCc3ccncc3)C2)c1` (relative stereo), the inhibition was 1% (enzyme activity, inhibitor; 1 µM).
